Published values pooled from the literature.
Protocols differ between the studies behind these lines. ± gives the spread as reported.

| SMILES | cell line | assay | conditions | IC50 |
| --- | --- | --- | --- | --- |
| N=C(N/N=C/c1ccc[nH]1)N/N=C/c1ccc[nH]1 | KP-4 | cell growth or viability, crystal violet | 72 h | 0.52 µM |
| CCCC/C=N/NC(=O)c1cc2cc(Nc3nccc(-c4cccnc4)n3)ccc2[nH]1 | HepG2, HeLa, MDA-MB-231, MCF7 | cell growth, MTT | cancer cell lines as group | > 50 µM |
| [Cl][Au-][c]1n(-c2c(C(c3ccccc3)c3ccccc3)cc(C(c3ccccc3)c3ccccc3)cc2C(c2ccccc2)c2ccccc2)c2c([n+]1-c1c(C(c3ccccc3)c3ccccc3)cc(C(c3ccccc3)c3ccccc3)cc1C(c1ccccc1)c1ccccc1)-c1cccc3cccc-2c13 | 2008 | cell growth, MTT | 72 h | > 50 µM |
| N#C/C(=C\c1cn(-c2ccccc2)nc1-c1ccc(Cl)cc1Cl)c1nc2ccccc2[nH]1 | SW1990 | cell growth or viability, ATP luminescence | 72 h | > 100 µM |
| COc1ccc2cc3[n+](cc2c1OCc1cn(Cc2ccccc2Br)nn1)CCc1cc2c(cc1-3)OCO2 | SW1990 | cell growth or viability, MTT | – | 25.2 µM |
| Cc1c(C)c(-c2ccc(-c3ccccc3)cc2)[c-](C)c1C.Cc1c(C)c(-c2ccc(-c3ccccc3)cc2)[c-](C)c1C.[Cl-].[Cl-].[Cl-].[Cl-].[Ir+3].[Ir+3] (stereo not shown) | A549 human cancer cells | cell growth, MTT | 24 h | > 50 µM |
| O=C(c1ccncc1)N1N=C2/C(=C/c3ccc4ccccc4c3)CCCC2C1c1ccc2ccccc2c1 (stereo not shown) | human erythrocytes | membrane protection, HRBC membrane stabilization | – | 0.05 µM |
| COc1ccc(Cn2cc(COc3c(OC)ccc4cc5[n+](cc34)CCc3cc4c(cc3-5)OCO4)nn2)cc1 | SW1990 | cell growth or viability, MTT | – | 35.6 µM |
| O=c1ccn([C@@H]2O[C@H](CO)[C@@H](O)[C@H](F)[C@H]2O)c(=O)[nH]1 | Molt4/C8 | cell growth or viability | – | > 200 µM |
| Cc1sc2c(c1C)C(c1ccc(Cl)cc1)=N[C@@H](CC(=O)N1CCN(CC3CCN(C(=O)CN4CCC(Nc5cccc6c5cc(C#CCNc5ccc(P(C)(C)=O)cc5)n6CC(F)(F)F)CC4)CC3)CC1)c1nnc(C)n1-2 | A549 p53 wild type | cell growth | – | 3.5 µM |
| CN1CCN(c2ccc(/C=C3\C(=O)Nc4ccc(-c5ccc(-c6ccc(O)cc6)cc5)cc43)cc2)CC1 | NIH3T3 | cell growth or viability, WST-1 | 48 h | 18.7 µM |
| CCOP(=O)(OCC)C(Cc1ccccc1F)Nc1ccc(Cl)cc1 (stereo not shown) | T98G | cell growth or viability, MTT | 48 h | 67.9 µM |
| N[C@@H](CCC(=O)N[C@@H](CS[Se]Cc1ccc(-c2cc(C(F)(F)F)nn2-c2ccc(S(N)(=O)=O)cc2)cc1)C(=O)NCC(=O)O)C(=O)O | WM-115 melanoma cells | cell viability, MTS | 48 h, vertical stage | 5.8 ± 0.9 µM |
| Cc1c(C)n(-c2c(C(C)C)cccc2C(C)C)c(=[Se])n1-c1c(C(C)C)cccc1C(C)C.[Cl][Ag] | human ovarian cancer cells | cell viability, MTT | 72 h | 3 ± 0.9 µM |
| Cc1cc(C)cc(/C=N/NC(=N)N/N=C/c2cc(C)cc(C)c2)c1 | KP-4 | cell growth, crystal violet | 72 h | 29.1 ± 3.5 µM |
| C[C@H](C(=O)Nc1ccc(Cn2cc(C(F)(F)F)ccc2=O)cc1)N(C)C | NIH3T3 | cell proliferation, CCK-8 | – | 442 ± 4.8 µM |
| CN(C)c1ccc(/C=C2\Oc3cc(O)ccc3C2=O)cc1 | myeloma cell lines | cell viability, MTT | – | 7 to 9 µM |
| CC(=O)N[C@@H](CCCNC(=N)N)C(=O)N[C@H](CC(=O)N[C@@H](Cc1ccccc1)C(N)=O)c1cccc2ccccc12 | MCF-7 (no HER2 overexpression) | – | – | 26.1 ± 1.75 µM |
| CC(=O)O[C@@H]1CC[C@@]2(C)[C@@H](CC[C@]3(C)[C@@H]2C(=O)C=C2[C@@H]4[C@@H](C)[C@H](C)CC[C@]4(C)CC[C@]23C)[C@@]1(C)C(=O)O | HBE | cell growth or viability, MTT | 48 h | 26.2 µM |
| N#C/C(=C\c1cn(-c2ccccc2)nc1-c1cccc(Br)c1)c1nc2ccccc2[nH]1 | SW1990 | cell growth or viability, ATP luminescence | 72 h | 64.1 µM |

| SMILES | cell line | assay | conditions | IC50 |
| --- | --- | --- | --- | --- |
| CC(=O)Oc1ccccc1C(=O)[O][Pt]([NH2])([NH2])([Cl])([Cl])[O]C(=O)CCCc1ccccc1 | LoVo | cell growth or viability, MTT | 72 h | 0.055 µM |
| COc1ccc([C@@H]2CC(=O)c3c(O)cc(O[C@@H]4O[C@H](CO[C@@H]5O[C@@H](C)[C@H](O)[C@@H](O)[C@H]5O)[C@@H](O[C@H]5O[C@H](CO)[C@@H](O)[C@H](O)[C@H]5O)[C@H](O)[C@H]4O)cc3O2)cc1O | A549 | cell growth or viability, MTS | 72 h | 54.6 µg/mL |
| CCCC(CCC)C(=O)NCCNC(=O)[C@]1(C)[C@@H]2CC[C@]3(C)[C@H](C(=O)C=C4[C@@H]5[C@@H](C)[C@H](C)CC[C@]5(C)CC[C@]43C)[C@@]2(C)CC[C@H]1OC(C)=O | HBE | cell growth or viability, MTT | 48 h | > 30 µM |
| CC(C)=CCc1c(O)cc2oc3cc(O)c(O)c(CC=C(C)C)c3c(=O)c2c1O | SW480 | cell growth or viability | 48 h | 8.4 µM |
| COc1ccc2cc3[n+](cc2c1OCc1cn(Cc2cccc(Cl)c2)nn1)CCc1cc2c(cc1-3)OCO2 | SW1990 | cell growth or viability, MTT | – | 46.8 µM |
| N=C(N)NCCC[C@H](N)C(=O)N[C@@H](CC(=O)N[C@@H](Cc1ccc(O)cc1)C(=O)O)c1cccc2ccccc12 | MCF-7 (no HER2 overexpression) | – | – | > 50 µM |
| O=[N+]([O-])[O-].[NH3+][Pt-2]1([NH3+])[O]C(c2ccccc2)=CC(c2ccccc2)=[O+]1 (stereo not shown) | U2OS | cell growth or viability, MTT | – | 2.7 µM |
| Cc1ncsc1-c1ccc(C(CO)NC(=O)C2CC(O)CN2C(=O)C(C(C)C)n2cc(-c3ccc(COc4c(-c5c(C)c(F)cc6[nH]ncc56)c(C5CC5)cc5c(N6CC7CC6CN7)nc(OC6CCOCC6)nc45)cc3)nn2)cc1 (stereo not shown) | AsPC-1 | ERK1/2 phosphorylation, inhibitor, In-Cell ELISA | 24 h | 0.014 µM |
| c1ccc(-c2nc(-c3cccnc3)[nH]c2-c2ccccc2)cc1 | L929 | cell growth or viability, SRB | – | 83.8 µM |
| CCCC(CCC)C(=O)[O][Pt]([NH2])([NH2])([Cl])([Cl])[O]C(=O)C(C)c1ccc(CC(C)C)cc1 (stereo not shown) | BCPAP | cell growth or viability, MTT | 72 h | 0.68 µM |
| Cc1ccc(C(C)C)cc1.[Cl][Au].[Cl][Ru][Cl].c1ccc(P(CP(c2ccccc2)c2ccccc2)c2ccccc2)cc1 | L929 | cell growth or viability, trypan blue | 48 h | 36.1 µM |
| C=CCc1ccc(OC(C)=O)c(OC)c1 | HSC-4 | MTT | 24 h | > 50 µM |
| Cc1cc(N)c2cc(NC(=O)CCC(=O)Nc3ccc4nc(C)cc(N)c4c3)ccc2n1 | CHO wild type | FGF2 binding to heparan sulfate, inhibitor, flow cytometry | on ice, together with: biotinylated FGF2 2.5 nM | 1.2 ± 0.11 µM |
| CC(C)(C(=O)O)C1(O)CCCCC1 | Fem-X | cell growth or viability | 72 h | > 200 µM |
| O=C1NCC(Cc2ccccc2)N(CC2CCCN2CC(CC2CCCCC2)N2CC(Cc3ccc(O)cc3)N(CCc3ccccc3)C(=O)C2=O)C1=O (stereo not shown) | human primary adult melanocytes | viability | 72 h | > 100 µM |
| CC(=O)O[C@@H]1CC[C@@]2(C)[C@@H](CC[C@]3(C)[C@@H]2C(=O)C=C2[C@@H]4[C@@H](C)[C@H](C)CC[C@]4(C)CC[C@]23C)[C@@]1(C)C(=O)NCCNC(=O)CCCCCCC[P+](c1ccccc1)(c1ccccc1)c1ccccc1 | HBE | cell growth or viability, MTT | 48 h | 11.3 µM |
| [Cl][Au].[Se]=c1n(C23CC4CC(CC(C4)C2)C3)ccn1C12CC3CC(CC(C3)C1)C2 | human ovarian cancer cells | cell viability, MTT | 72 h | 2.3 ± 0.4 µM |
| CCC12CCc3c(c4ccccc4n3C)CCN(CC3OC31)C2 (stereo not shown) | BV-2 | NO release, inhibitor, Griess | LPS-stimulated | ~6 µM |
| COc1ccc2cc3[n+](cc2c1OCc1cn(Cc2ccccc2Cl)nn1)CCc1cc2c(cc1-3)OCO2 | SW1990 | cell growth or viability, MTT | – | 40.7 µM |
| CC(=O)O[C@@H]1CC[C@@]2(C)[C@@H](CC[C@]3(C)[C@@H]2C(=O)C=C2[C@@H]4[C@@H](C)[C@H](C)CC[C@]4(C)CC[C@]23C)[C@@]1(C)C(=O)NCCNC(=O)c1ccccc1 | HBE | cell growth or viability, MTT | 48 h | 13.7 µM |

| SMILES | cell line | assay | conditions | IC50 |
| --- | --- | --- | --- | --- |
| Cc1cc(/C=C/C#N)cc(C)c1Oc1cc(Nc2ccc(C#N)cn2)nc2ccncc12 | HuCC-A1 | – | 48 h | > 120 µM |
| COc1ccc(CC[C@H]2OC(=O)[C@@H]3CCCCN3C(=O)C(=O)C(C)(C)COC(=O)/C=C/CCN(C)C(=O)[C@H](CC(C)C)N(C)C(=O)[C@@H]3CCCN3C(=O)[C@H](Cc3ccccc3)N(C)C(=O)[C@H](c3ccccc3)NC(=O)CCC(=O)Nc3cccc2c3)cc1OC | human erythrocytes | adenosine uptake, inhibitor | together with: [3H]-adenosine | 0.045 µM |
| C=C1C(=O)[C@@]23CC[C@@H]4C(C)(C)CCC[C@@]4(CO)[C@@H]2[C@@H](O)C[C@@H]1C3 | HBE | cell growth or viability, MTT | – | > 20 µM |
| COC(=O)[C@@H]1[C@@H](OC)[C@H](OC(=O)c2cc(OC)c(OC)c(OC)c2)C[C@@H]2CN3CC[C@]4(O[C@@H]3C(=O)[C@@H]21)C(=O)Nc1cc(OC)c(-c2ccc(C(F)(F)F)cc2)cc14 | RS4-11 | cell growth or viability, trypan blue | 72 h | 0.32 µM |
| COc1c(C)c(OC(=O)c2ccccc2)c(C)c(OC(=O)c2ccccc2)c1C(=O)/C=C/c1ccccc1 | FaDu | cell growth or viability, SRB | 72 h | 24.5 µM |
| CCOC12C(O)C(OC)C3(O)CC(O)(C1C3OC(=O)c1ccccc1)C13C(OC)CC(O)C4(COC)CN(C)C1C2C(OC)C43 (stereo not shown) | HBE | cell growth or viability, MTT | – | 32.1 µM |
| COc1cc(/C=C/C(=O)NCCCCCCNC2=C3C[C@@H](C)C[C@H](OC)[C@H](O)[C@@H](C)/C=C(\C)[C@H](OC(N)=O)[C@@H](OC)/C=C\C=C(/C)C(=O)NC(=CC2=O)C3=O)ccc1O | BGC-823 | cell growth or viability, MTT | 72 h | 0.709 µM |
| CCOP(=O)(OCC)C(Cc1cc(F)c(F)c(F)c1)Nc1ccccc1 (stereo not shown) | T98G | cell growth or viability, MTT | 48 h | 25.1 µM |
| O=c1sn(Cc2ccccc2)c(=O)n1C1CC1 | NB-4 | cell growth or viability | 72 h | 15.1 µM |
| Cc1cnc2c(ccc3c(C)c(C)cnc32)c1C.O=C([O-])Cc1ccccc1Nc1c(Cl)cccc1Cl.O=C([O-])Cc1ccccc1Nc1c(Cl)cccc1Cl.[Mn+2] | HMLER breast cancer cells | cytotoxicity, MTT | 72 h | 0.186 ± 0.026 µM |
| [Cl][Cu-][c]1n(-c2c(C(c3ccccc3)c3ccccc3)cc(C(c3ccccc3)c3ccccc3)cc2C(c2ccccc2)c2ccccc2)c2c([n+]1-c1c(C(c3ccccc3)c3ccccc3)cc(C(c3ccccc3)c3ccccc3)cc1C(c1ccccc1)c1ccccc1)-c1cccc3cccc-2c13 | 2008 | cell growth, MTT | 72 h | > 50 µM |
| N=C(N/N=C/c1cncnc1)N/N=C/c1cncnc1 | KP-4 | cell growth, crystal violet | 72 h | 119 ± 14.3 µM |
| CC(C)c1cccc(C(C)C)c1N1CCN(c2c(C(C)C)cccc2C(C)C)C1=[Se].[Cl][Ag] | LoVo | cell growth or viability, MTT | 72 h | 2.7 µM |
| CC(=O)O[C@@H]1CC[C@@]2(C)[C@@H](CC[C@]3(C)[C@@H]2C(=O)C=C2[C@@H]4[C@@H](C)[C@H](C)CC[C@]4(C)CC[C@]23C)[C@@]1(C)C(=O)NCCNC(=O)CCCC[P+](c1ccccc1)(c1ccccc1)c1ccccc1 | HBE | cell growth or viability, MTT | 48 h | > 30 µM |
| C#CCOc1ccc(-c2n(CC(=O)O[C@@H]3C[C@H](C)CC[C@H]3C(C)C)c3ccccc3[n+]2C)cc1N=[N+]=[N-] | mouse glioblastoma HTS cells | cell viability, CellTiter-Glo | 96 h | ~0.35 µM |
| NC1=N[N+](=Cc2c3ccccc3cc3ccccc23)[Ga-3]23([S]1)([S]C(N)=N[N+]2=Cc1c2ccccc2cc2ccccc12)[S]C(N)=N[N+]3=Cc1c2ccccc2cc2ccccc12 | CCD-18Co | – | 24 h | 54 ± 1.8 µM |
| CC1=C2[O][Ru-]([Cl])[O+]=C2C=CN1CCCCCCCCCCCCN1C=CC2=[O+][Ru-]([Cl])[O]C2=C1C.Cc1ccc(C(C)C)cc1.Cc1ccc(C(C)C)cc1 | LCLC-103H | cell growth or viability, crystal violet | 96 h | 2.5 µM |
| CC1CC(=O)N(CCCCN)N=C1c1ccc(NC(=O)N2Cc3ccncc3C2)cc1 (stereo not shown) | MDA-MB-453 | cell growth or viability, ATP luminescence | – | 0.00018 µM |
